Results pooled from the literature.
Each line is one published result; not all experiments were run side by side. “And” joins repeats or separate records; there may be more than shown. ± gives the spread as reported.
CHRM4: Muscarinic acetylcholine receptor M4 (CHRM4, Homo sapiens, UniProt P08173)
Sequence of UniProt P08173 (whole entry, looked up): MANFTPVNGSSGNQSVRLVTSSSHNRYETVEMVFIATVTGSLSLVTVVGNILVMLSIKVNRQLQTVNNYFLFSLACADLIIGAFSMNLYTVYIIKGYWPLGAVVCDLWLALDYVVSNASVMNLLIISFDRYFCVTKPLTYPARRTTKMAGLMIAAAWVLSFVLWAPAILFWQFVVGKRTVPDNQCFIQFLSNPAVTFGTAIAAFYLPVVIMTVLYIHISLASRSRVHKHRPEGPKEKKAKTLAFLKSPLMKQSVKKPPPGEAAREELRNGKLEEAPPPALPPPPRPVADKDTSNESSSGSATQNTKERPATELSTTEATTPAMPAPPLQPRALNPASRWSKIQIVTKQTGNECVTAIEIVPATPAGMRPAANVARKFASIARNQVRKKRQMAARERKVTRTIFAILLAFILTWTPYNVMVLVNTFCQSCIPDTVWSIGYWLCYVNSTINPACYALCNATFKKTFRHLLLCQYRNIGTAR
Sequence of UniProt P41594 (whole entry, looked up): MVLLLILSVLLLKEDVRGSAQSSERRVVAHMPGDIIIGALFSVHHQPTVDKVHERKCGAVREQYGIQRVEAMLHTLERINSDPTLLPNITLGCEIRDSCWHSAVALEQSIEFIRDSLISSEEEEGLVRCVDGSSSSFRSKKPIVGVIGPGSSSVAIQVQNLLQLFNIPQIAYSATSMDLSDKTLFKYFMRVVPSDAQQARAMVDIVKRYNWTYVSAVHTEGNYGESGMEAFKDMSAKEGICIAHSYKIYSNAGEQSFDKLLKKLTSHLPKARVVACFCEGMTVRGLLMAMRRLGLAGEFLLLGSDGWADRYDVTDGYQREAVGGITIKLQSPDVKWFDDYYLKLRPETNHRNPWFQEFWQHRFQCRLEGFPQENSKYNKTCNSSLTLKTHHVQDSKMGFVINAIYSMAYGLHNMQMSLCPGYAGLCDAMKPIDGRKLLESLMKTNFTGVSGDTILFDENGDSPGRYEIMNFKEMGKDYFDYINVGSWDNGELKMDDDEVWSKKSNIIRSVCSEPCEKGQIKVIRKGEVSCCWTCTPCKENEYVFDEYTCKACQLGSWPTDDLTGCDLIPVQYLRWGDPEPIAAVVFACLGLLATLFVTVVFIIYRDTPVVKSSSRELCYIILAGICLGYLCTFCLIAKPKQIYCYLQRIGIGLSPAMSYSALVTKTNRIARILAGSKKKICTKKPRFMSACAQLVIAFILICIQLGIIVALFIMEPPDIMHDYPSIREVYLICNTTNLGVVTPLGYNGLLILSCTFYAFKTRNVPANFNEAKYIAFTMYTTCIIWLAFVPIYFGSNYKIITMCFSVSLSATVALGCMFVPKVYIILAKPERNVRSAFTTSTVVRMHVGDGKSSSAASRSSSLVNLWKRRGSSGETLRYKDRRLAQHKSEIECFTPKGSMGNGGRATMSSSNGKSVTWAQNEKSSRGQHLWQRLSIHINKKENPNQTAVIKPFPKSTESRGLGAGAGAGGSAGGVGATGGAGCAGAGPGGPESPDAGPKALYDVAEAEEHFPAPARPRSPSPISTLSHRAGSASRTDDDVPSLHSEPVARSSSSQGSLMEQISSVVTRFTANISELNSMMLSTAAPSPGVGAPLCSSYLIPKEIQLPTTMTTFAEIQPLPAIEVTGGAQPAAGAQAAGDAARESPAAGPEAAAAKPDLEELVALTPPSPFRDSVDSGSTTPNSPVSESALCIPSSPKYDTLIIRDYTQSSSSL
Sequence of UniProt P16050 (whole entry, looked up): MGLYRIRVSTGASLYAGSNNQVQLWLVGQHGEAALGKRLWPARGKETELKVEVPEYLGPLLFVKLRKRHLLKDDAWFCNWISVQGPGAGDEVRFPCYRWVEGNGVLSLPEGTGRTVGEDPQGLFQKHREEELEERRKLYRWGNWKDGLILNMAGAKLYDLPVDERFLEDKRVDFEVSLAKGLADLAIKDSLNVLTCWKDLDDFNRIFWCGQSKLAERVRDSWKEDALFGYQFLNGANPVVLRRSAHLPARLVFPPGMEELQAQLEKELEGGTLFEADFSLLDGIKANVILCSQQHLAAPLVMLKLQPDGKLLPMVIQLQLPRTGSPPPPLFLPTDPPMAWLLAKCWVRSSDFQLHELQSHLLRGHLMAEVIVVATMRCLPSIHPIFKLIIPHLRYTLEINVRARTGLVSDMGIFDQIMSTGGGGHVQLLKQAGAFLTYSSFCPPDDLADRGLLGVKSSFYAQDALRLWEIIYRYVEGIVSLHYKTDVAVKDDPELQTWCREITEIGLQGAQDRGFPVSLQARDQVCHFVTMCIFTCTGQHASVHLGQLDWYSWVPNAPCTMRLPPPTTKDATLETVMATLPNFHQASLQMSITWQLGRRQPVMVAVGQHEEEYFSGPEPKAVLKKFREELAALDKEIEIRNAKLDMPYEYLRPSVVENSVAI
Sequence of UniProt Q9HC35 (whole entry, looked up): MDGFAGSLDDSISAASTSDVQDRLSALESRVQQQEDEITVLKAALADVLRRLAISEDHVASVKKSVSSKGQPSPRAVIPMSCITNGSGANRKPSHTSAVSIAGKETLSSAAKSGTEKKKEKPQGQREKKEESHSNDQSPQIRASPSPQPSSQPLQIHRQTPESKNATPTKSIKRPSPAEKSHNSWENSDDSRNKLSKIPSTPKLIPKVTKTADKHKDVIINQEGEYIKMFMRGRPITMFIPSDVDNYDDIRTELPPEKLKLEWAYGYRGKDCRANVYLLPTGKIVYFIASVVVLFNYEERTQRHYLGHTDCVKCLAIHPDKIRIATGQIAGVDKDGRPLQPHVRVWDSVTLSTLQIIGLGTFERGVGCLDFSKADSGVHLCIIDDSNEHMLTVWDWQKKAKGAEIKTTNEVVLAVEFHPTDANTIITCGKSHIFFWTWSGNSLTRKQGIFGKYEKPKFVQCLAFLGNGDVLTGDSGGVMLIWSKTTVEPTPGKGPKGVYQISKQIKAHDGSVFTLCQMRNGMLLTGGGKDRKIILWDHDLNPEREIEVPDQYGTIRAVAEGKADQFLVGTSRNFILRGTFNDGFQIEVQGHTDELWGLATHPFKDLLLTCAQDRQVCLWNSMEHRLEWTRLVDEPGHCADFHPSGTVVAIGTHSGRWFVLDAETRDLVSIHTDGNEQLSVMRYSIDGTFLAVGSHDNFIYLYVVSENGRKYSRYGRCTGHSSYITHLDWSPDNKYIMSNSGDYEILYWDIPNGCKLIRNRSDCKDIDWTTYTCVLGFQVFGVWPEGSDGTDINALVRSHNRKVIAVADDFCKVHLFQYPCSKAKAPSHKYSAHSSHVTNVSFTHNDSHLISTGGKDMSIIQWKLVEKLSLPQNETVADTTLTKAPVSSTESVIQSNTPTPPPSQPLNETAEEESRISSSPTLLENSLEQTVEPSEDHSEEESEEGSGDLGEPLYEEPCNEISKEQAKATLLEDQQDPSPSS
Sequence of UniProt Q92835 (whole entry, looked up): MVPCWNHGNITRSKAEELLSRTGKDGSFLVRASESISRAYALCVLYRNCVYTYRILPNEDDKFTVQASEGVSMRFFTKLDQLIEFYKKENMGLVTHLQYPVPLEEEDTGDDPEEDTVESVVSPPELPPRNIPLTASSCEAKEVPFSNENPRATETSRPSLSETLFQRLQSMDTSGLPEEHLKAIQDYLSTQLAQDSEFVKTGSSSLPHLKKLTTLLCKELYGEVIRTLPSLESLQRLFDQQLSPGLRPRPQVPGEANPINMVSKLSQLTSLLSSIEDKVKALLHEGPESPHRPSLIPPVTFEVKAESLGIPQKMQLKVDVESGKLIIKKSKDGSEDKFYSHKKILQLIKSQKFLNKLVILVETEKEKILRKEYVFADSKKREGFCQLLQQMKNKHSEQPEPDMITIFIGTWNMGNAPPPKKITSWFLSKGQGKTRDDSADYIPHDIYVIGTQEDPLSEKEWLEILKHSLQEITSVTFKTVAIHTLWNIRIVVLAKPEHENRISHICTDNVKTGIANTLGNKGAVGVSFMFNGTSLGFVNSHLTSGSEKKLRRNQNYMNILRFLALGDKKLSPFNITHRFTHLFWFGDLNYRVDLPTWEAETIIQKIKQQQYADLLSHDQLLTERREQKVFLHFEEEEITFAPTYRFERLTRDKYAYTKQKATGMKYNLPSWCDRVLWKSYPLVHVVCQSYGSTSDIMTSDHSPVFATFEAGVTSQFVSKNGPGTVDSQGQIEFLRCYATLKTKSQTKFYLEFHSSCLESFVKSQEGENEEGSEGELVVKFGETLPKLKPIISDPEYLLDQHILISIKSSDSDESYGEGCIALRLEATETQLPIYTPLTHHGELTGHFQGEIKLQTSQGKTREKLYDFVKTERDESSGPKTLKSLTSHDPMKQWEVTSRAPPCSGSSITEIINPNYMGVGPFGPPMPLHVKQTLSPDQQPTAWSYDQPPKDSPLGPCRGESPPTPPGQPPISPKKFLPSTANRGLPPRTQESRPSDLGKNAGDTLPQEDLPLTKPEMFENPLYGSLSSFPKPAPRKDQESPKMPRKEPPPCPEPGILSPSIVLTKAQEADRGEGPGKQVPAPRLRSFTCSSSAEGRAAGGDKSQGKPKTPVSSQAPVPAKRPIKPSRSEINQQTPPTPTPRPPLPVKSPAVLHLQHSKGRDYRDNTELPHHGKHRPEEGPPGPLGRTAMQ
Sequence of UniProt P14618 (whole entry, looked up): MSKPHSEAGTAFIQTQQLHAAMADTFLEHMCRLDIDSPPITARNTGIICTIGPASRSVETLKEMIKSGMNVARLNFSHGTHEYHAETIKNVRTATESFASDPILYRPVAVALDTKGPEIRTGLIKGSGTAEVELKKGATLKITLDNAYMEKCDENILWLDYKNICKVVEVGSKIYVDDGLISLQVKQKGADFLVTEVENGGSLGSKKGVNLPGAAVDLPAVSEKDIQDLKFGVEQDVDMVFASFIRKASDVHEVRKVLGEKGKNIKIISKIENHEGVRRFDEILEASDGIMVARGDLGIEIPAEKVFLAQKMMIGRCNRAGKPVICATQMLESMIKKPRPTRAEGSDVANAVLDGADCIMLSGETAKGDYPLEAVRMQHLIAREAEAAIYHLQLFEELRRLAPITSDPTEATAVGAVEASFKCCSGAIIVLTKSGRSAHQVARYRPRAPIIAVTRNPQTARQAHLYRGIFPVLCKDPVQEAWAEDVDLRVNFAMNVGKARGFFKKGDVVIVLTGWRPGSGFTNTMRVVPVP

Structure (SMILES)	target	assay	test system	setting	quantity	value
C=CC(=O)c1nc(C#N)ccc1N1CCCOCC1	INPP5D (Homo sapiens, UniProt Q92835)	target engagement	HMC3 expressing HiBiT-INPP5D	60 min, 37 °C	AC50	41 µM
CCCCCCCOc1ccc(CC[C@](N)(CO)COP(=O)(O)O)cc1C(F)(F)F	S1PR3 (Homo sapiens, UniProt Q99500)	calcium signal, agonist	–	–	EC50	> 10 µM
CN1CCN(CC(=O)N2N=C3/C(=C/c4ccccc4)CCCC3C2c2ccccc2)CC1 (mixture of isomers)	ALOX15 (Homo sapiens, UniProt P16050)	enzyme activity, activator	–	together with: linoleic acid 10 µM	AC50	5.3 µM
CCc1nc(-c2ccc(-c3ccc(CCC(N)(CO)COP(=O)(O)O)cc3)cc2)co1 (centres unmarked)	S1PR1 (Homo sapiens, UniProt P21453)	inositol phosphate, agonist, TR-FRET	–	–	EC50	0.0022 µM
CC(=O)NCCN(CC(=O)NCCN(CC(=O)NCCN(CC(=O)NCCC(N)=O)C(=O)C[C@@H](N)CCCNC(=N)N)C(=O)C[C@@H](N)Cc1ccccc1)C(=O)C[C@@H](N)Cc1ccccc1	HIV-1 TAR RNA (18-44)	fluorescence	–	25 °C, together with: 100-fold excess 15-mer duplex DNA	Kd	0.39 ± 0.05 µM
Cc1ccc(Oc2cc(C(=O)NCc3ccccn3)nc3ccsc23)cn1	GRM5 (Homo sapiens, UniProt P41594)	calcium flux, positive allosteric modulator	–	together with: glutamate EC20	EC50	2.8 µM and 2.83 µM
COc1cc(N2CCN(C(=O)C3CCCN3)CC2)ccc1Nc1ncc(Cl)c(Nc2ccccc2P(C)(C)=O)n1 (centres unmarked)	ALK tyrosine kinase receptor/Echinoderm microtubule-associated protein-like 4 (Homo sapiens, UniProt Q9HC35+Q9UM73)	degrader	–	–	DC50	0.074 µM
CCCCOc1ccc(C(=O)OCC[N+]2(C)CC=CCC2)cc1 (centres unmarked)	CHRM4	inositol phosphate accumulation, antagonist, Schild analysis	CHO co-expressing G15	together with: carbachol	Kb	0.257 µM
O=C(NCc1cccnc1)c1ccc2c(c1)[C@H]1[C@@H]3CC[C@@H](C3)[C@H]1[C@H](c1ccccc1)N2	Pyruvate kinase PKM (PKM, Homo sapiens, UniProt P14618)	enzyme activity, activator, Kinase-Glo Plus	–	1 h, room temperature, together with: ADP 0.1 mM, PEP 0.5 mM	AC50	8.47 µM
CCCCCCCCCCCCCCCC(=O)Nc1ccccc1SSc1ccccc1NC(=O)CCCCCCCCCCCCCCC	Albumin (ALB, Bos taurus, UniProt P02769)	binding, fluorescence quenching	–	pH 7.4, 308 K	Kd	17500 µM
CCCCCCOc1ccc(C(=O)OCCN2CC=CCC2)cc1	CHRM4	inositol phosphate accumulation, antagonist, Schild analysis	CHO co-expressing G15	together with: carbachol	Kb	0.275 µM

Repeated from above:
Structure (SMILES)	target	assay	test system	setting	quantity	value
COc1cc(N2CCN(C(=O)C3CCCN3)CC2)ccc1Nc1ncc(Cl)c(Nc2ccccc2P(C)(C)=O)n1 (centres unmarked)	ALK tyrosine kinase receptor/Echinoderm microtubule-associated protein-like 4 (Homo sapiens, UniProt Q9HC35+Q9UM73)	degrader	–	–	DC50	0.074 µM
